Assay results of several laboratories.
A part holds a random share of what one study measured.
Chain of UniProt Q16832 (whole entry, looked up): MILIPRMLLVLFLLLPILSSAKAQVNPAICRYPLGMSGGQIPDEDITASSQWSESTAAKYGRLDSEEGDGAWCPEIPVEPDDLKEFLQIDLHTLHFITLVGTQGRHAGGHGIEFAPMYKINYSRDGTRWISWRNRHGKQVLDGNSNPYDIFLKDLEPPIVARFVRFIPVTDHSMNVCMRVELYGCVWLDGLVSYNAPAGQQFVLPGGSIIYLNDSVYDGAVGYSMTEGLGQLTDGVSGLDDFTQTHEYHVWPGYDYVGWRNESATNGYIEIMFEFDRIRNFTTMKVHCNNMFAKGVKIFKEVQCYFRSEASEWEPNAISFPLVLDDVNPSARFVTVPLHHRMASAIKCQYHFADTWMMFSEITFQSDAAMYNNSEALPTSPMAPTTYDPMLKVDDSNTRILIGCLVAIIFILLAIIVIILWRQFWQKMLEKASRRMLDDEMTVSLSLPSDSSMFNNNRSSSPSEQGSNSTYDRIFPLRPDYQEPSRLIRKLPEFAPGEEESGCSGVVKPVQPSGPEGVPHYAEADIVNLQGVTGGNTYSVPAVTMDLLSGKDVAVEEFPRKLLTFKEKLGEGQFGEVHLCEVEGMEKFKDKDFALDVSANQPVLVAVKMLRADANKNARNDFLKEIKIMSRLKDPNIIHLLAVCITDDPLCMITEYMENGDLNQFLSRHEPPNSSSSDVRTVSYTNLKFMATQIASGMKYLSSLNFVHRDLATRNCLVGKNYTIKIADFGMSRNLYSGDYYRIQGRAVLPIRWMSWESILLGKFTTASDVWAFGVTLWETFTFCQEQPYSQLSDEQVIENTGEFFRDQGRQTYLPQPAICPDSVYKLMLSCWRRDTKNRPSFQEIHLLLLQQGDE
Chain of UniProt P31751 (whole entry, looked up): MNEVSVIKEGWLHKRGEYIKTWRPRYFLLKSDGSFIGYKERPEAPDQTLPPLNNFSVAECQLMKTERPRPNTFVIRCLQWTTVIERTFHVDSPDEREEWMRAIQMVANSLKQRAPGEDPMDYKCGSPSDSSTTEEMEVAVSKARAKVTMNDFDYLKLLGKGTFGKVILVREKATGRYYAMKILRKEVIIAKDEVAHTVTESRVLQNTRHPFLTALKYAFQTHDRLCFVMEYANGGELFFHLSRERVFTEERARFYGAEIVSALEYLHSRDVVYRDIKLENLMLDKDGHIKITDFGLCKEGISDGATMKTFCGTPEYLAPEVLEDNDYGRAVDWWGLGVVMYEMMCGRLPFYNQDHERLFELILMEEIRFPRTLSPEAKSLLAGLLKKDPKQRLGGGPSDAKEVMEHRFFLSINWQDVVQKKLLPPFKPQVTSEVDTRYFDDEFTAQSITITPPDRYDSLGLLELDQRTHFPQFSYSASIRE
Chain of UniProt P51812 (whole entry, looked up): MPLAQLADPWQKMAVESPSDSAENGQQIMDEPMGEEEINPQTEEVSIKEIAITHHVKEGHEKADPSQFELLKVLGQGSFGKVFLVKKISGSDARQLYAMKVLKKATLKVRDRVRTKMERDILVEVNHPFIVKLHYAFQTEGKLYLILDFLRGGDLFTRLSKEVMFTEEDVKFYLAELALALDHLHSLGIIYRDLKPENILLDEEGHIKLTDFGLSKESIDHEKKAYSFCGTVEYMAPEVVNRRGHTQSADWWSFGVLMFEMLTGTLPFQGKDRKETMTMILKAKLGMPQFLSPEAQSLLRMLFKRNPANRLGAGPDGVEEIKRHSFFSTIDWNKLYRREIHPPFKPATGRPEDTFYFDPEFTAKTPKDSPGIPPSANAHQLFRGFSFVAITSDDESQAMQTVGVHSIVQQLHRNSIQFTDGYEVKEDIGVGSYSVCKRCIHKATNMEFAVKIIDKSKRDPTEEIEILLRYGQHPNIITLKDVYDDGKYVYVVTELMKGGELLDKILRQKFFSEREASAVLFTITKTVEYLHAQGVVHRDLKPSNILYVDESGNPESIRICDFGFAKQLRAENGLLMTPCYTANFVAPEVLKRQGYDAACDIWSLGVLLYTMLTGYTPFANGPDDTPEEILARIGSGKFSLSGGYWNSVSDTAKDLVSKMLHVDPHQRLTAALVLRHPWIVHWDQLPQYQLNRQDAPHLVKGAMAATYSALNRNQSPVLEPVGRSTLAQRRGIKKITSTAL
Chain of UniProt Q6P2M8 (whole entry, looked up): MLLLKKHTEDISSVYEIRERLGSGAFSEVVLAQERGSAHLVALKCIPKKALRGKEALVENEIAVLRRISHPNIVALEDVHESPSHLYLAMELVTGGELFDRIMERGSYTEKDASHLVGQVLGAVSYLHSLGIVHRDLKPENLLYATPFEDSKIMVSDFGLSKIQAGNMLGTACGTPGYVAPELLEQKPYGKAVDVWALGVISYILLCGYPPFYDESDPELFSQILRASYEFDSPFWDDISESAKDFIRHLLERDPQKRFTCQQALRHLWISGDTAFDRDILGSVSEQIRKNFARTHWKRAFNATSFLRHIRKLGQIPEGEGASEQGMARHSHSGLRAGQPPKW
Chain of UniProt Q8N568 (whole entry, looked up): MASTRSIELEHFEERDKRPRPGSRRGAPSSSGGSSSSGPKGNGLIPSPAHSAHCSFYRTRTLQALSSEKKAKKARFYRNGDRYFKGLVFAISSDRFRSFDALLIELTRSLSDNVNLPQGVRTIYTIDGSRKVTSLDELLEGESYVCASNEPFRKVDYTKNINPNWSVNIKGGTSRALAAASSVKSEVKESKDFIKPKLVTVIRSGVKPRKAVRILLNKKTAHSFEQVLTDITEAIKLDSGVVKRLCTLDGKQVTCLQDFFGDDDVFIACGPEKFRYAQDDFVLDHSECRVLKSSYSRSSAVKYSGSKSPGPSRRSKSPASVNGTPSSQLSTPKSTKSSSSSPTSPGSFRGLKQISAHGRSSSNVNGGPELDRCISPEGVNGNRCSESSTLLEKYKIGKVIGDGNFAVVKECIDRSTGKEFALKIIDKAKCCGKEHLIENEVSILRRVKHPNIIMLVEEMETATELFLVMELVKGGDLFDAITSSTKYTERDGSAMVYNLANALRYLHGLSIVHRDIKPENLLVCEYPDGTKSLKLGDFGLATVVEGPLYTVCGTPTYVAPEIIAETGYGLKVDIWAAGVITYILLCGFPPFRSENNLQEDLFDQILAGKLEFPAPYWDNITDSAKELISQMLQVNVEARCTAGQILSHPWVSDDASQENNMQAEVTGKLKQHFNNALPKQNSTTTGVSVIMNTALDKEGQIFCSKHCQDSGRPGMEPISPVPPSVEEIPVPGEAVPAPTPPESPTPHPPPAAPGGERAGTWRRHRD
Chain of UniProt Q16539 (whole entry, looked up): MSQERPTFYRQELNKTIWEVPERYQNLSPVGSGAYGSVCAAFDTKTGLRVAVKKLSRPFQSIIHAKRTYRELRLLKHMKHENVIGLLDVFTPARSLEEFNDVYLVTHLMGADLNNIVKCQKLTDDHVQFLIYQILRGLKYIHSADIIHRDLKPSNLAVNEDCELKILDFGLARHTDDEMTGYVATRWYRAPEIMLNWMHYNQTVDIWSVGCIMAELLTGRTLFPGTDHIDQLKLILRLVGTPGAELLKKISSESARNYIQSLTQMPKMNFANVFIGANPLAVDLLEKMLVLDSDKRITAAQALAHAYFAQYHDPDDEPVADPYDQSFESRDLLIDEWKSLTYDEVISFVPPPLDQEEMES
Chain of UniProt P53350 (whole entry, looked up): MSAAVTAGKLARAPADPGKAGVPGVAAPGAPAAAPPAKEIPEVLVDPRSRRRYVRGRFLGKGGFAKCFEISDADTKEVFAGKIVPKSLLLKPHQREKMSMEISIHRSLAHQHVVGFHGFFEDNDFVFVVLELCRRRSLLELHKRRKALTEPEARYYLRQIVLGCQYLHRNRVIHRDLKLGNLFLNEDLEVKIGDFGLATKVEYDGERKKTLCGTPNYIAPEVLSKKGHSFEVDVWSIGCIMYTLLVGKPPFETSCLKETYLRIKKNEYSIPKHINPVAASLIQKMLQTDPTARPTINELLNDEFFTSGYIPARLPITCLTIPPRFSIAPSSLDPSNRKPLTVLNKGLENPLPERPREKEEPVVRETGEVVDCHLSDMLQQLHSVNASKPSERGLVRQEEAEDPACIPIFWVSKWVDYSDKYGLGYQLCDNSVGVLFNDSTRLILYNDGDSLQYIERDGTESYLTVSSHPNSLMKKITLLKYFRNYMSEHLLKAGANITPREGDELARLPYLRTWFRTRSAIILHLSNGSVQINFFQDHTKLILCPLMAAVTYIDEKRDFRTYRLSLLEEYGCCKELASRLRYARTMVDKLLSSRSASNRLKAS
Chain of UniProt Q16566 (whole entry, looked up): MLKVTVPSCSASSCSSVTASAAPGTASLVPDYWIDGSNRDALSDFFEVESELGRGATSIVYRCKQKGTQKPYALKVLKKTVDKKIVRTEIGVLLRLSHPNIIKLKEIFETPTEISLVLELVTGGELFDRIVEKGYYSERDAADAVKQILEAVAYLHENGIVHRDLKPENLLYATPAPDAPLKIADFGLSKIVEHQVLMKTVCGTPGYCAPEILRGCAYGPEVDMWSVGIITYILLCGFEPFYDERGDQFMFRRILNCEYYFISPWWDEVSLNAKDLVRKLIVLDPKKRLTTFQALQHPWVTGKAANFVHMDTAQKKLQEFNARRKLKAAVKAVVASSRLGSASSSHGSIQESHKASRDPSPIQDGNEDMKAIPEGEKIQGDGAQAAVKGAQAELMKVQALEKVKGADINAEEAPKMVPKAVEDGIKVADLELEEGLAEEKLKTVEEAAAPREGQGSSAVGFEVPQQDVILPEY
Chain of UniProt P50750 (whole entry, looked up): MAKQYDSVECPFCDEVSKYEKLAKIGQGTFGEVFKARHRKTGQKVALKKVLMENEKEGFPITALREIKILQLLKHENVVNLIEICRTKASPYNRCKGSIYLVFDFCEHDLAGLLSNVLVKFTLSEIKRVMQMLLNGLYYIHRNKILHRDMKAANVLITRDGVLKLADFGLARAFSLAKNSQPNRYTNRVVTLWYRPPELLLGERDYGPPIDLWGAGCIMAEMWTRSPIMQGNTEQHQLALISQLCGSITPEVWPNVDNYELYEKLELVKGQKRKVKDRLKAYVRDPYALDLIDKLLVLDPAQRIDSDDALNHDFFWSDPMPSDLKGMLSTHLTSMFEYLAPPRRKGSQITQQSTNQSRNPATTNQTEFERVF

Study 1
Compound: Cn1nc2c3c(cccc31)C(=O)c1ccccc1-2
Read-out: enzyme activity
Action: inhibitor
Tested at: 0.5 µM
Relative to: control
Endpoint: remaining activity
DCLK2 (Homo sapiens, UniProt Q8N568): 94.2%
AKT2 (Homo sapiens, UniProt P31751): 98.9%
MARK2 (Homo sapiens, UniProt Q7KZI7): 94.1%
Cyclin-dependent kinase 9, with cyclin K (CDK9, Homo sapiens, UniProt P50750): 96.5%
MAPK14 (Homo sapiens, UniProt Q16539): 93.6%
PAK3 (Homo sapiens, UniProt O75914): 101%
MARK4 (Homo sapiens, UniProt Q96L34): 91.1%
PLK3 (Homo sapiens, UniProt Q9H4B4): 96.2%
ROCK1 (Homo sapiens, UniProt Q13464): 98.4%
CAMK4 (Homo sapiens, UniProt Q16566): 100%
CDC42BPB (Homo sapiens, UniProt Q9Y5S2): 98%
PNCK (Homo sapiens, UniProt Q6P2M8): 101%
DDR2 (Homo sapiens, UniProt Q16832): 95.1%

Study 2
SMILES: CCCCN(CCCC)C(=O)CN1C[C@H](c2cc(OC)c3c(c2)OCO3)[C@@H](C(=O)O)[C@@H]1CC(C)(C)CCC
Read-out: cell-free assay
Technique: competition with immobilised ligand
Tested at: 1 µM
Endpoint: remaining binding
EGFR (Homo sapiens, UniProt P00533, L861Q): 76.4%
PLK1 (Homo sapiens, UniProt P53350): 73.5%
EGFR (Homo sapiens, UniProt P00533, del746-750): 100%
Ribosomal protein S6 kinase alpha-3, N-terminal kinase domain (RPS6KA3, Homo sapiens, UniProt P51812): 100%

Study 3
Target: Protein max, full length (MAX, Homo sapiens, UniProt P61244-2, residues 1-151)
Technique: protein-binding microarray
Form: double-stranded DNA, one strand shown
Sample: in vitro
Tested at: not given
Notes: k-mer, scored over probes, only values ≥0.25
Direction: higher = stronger binding
Endpoint: E-score
ACGTCACA: 0.275
AAACCACG: 0.423
GATCACGC: 0.411
ACATGCAA: 0.331
CATGAGCA: 0.3
CGTGCTTC: 0.389
ATCACGCA: 0.327
CGACACGC: 0.377

Study 4
Target: Prothrombin, mature alpha-thrombin (F2, Homo sapiens, UniProt P00734)
Technique: aptamer microarray, sandwich
Form: DNA with 2'F-ANA
Sample: in vitro
Tested at: 200 nM
Notes: whole 15-mer aptamer, many near background
With: Cy3 exosite-II aptamer, 400 nM
Direction: higher = stronger binding
Endpoint: mean fluorescence intensity
Oligonucleotide: GGTTGGTGTGGTTGG
2'F-ANA at 1 2 3 5 7 8 10 12 14 15: 44.7 a.u.
2'F-ANA at 2 3 5 7 9 11 12 13 14 15: 137 a.u.
2'F-ANA at 2 3 12 13: 1010 a.u.
2'F-ANA at 3 6 8 10 15: 490 a.u.
2'F-ANA at 1 4 6 8 9 10 11 12 13 15: 51.6 a.u.
2'F-ANA at 3 5 6 7 9 10 12: 64.4 a.u.
2'F-ANA at 1 3 6 9 10 11 13 14 15: 58.7 a.u.
2'F-ANA at 2 3 6 7 10 11 13 14 15: 193 a.u.

For quick reference, copied from above (study 3):
GATCACGC: 0.411
AAACCACG: 0.423
CGTGCTTC: 0.389
ACATGCAA: 0.331
ACGTCACA: 0.275
